Assay results from different studies.
Every numbered part comes from another study and shows a few of its results, in no order.

Set 1 — technique: protein binding microarray; form: double-stranded DNA, one strand shown; matrix: in vitro; concentration: not given; relative to: not given; direction: higher = stronger binding
Target: Histone acetyltransferase KAT6A, winged helix 1, GST fusion (KAT6A, Homo sapiens, UniProt Q92794, residues 1-85)
Notes: 8-mer, flanks averaged, mean of 2 arrays, mostly near background
Target sequence (chain): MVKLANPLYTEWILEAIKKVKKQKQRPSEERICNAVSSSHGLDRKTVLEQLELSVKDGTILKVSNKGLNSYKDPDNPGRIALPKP
Oligonucleotide	E-score
ATGATCAC	-0.104
ATGCATAA	-0.0248
TGGAGCCA	-0.186
CCGGTTCC	0.303
GAACAACA	-0.0833

Set 2 — technique: protein-binding microarray; form: double-stranded DNA, one strand shown; matrix: in vitro; concentration: 2540 nM top; notes: 60-bp whole probe; with: salmon DNA 0.4 mg/ml; relative to: random background probes; direction: higher = stronger binding; shared flanks, not repeated: GCCTAGCAC … GTCTTGATTCGCTTGACGCTGCTG
Target: Interferon regulatory factor 3, full length, phosphomimetic (IRF3, Homo sapiens, UniProt Q14653, residues 1-427, S386D/S396D/S398D/S402D/T404D/S405D)
UniProt Q14653, sequence (whole entry, unmodified, looked up): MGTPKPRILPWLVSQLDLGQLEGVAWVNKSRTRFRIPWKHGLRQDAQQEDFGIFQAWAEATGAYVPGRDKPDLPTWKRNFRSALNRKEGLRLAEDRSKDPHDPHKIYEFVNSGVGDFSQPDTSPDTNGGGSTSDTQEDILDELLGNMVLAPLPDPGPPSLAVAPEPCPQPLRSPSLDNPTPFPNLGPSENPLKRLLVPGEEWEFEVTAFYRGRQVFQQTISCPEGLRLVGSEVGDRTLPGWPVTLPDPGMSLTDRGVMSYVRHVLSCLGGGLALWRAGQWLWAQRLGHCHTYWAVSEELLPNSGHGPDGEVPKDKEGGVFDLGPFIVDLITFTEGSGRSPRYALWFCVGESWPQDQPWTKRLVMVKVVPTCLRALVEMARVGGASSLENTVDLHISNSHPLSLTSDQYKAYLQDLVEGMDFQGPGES
Oligonucleotide	fitted relative affinity [z-score]
TCATTTCTCTGGTTCTTACTGTGCTAG	2.2
ATGCTTCTGGTCTTCTGGGCGTGCTAG	-0.343
TTAGGACTGCTACTGGTTTAGTGCTAG	-0.553
GGCGATATCAGTATCGAGACGTGCTAG	1.12
GACCGACTGCTTTTCCTGACGTGCTAG	0.195
GACGGTGTCGACACTGGGGACGTGCTA	0.55
TTAGTTCTCGGACTGGGTTAGTGCTAG	0.295
GACGGTCTCCTTATACTGACGTGCTAG	2.38

Set 3 — technique: RNAcompete; form: RNA; matrix: in vitro; concentration: 20 nM; notes: 7-mer, probes averaged, single round; relative to: mean of 7-mers; direction: higher = stronger binding
Target: PABPC1L2, full length, GST fusion (mouse, UniProt A0ABA7IW68)
Construct (chain): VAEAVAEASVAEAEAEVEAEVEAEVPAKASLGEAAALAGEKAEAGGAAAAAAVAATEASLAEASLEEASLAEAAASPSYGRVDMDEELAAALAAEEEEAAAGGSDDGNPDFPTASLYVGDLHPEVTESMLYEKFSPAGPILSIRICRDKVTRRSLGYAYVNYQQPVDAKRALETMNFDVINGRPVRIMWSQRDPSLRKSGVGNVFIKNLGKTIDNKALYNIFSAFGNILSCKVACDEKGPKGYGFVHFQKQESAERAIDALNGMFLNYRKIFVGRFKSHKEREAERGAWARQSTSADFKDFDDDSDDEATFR
Oligonucleotide	7-mer Z-score
GUACCUC	-0.342
AACGGCU	0.0787
CUUGAUA	-0.162
AGUCUUG	-0.405

Other studies, line by line
Substance	target	assay	test system	conditions	scale	endpoint	result
PhoQ, residues 284 288 289 292 302 303 ALSMDL	PhoP, residues 12 14 15 18 19 QWHVF (Escherichia coli, UniProt P23836)	Sort-seq, item: YFP reporter	E. coli	PhoQ-PhoP variant library, with: 10 µM Mg2+	relative to: high Mg2+ state, higher = stronger signaling	fold induction	6.61

Excerpt of the above (set 1):
Oligonucleotide	E-score
GAACAACA	-0.0833
